{"data": "Measured values gathered from unrelated publications", "Kir3.1/Kir3.2": "Kir3.1/Kir3.2 (Homo sapiens, UniProt P48051+P48549)", "note": "Each line is one published result; not all experiments were run side by side. ± gives the spread as reported."}
{"SMILES": "O=C1C[C@H](c2nc(-c3ccc(F)c4cn[nH]c34)no2)CCCN1c1ccc(F)cc1 (racemic)", "target": "Cannabinoid receptor 2 (CNR2, Homo sapiens, UniProt P34972)", "assay": "cAMP, agonist, luciferase", "test system": "CHO", "Emax [%]": 100}
{"SMILES": "COc1ccc(C(=O)c2c(C(=O)NCCCN(C)C)oc3ccc(Cl)cc3c2=O)cc1OC", "target": "Growth hormone secretagogue receptor type 1 (GHSR, Homo sapiens, UniProt Q92847, R199A)", "assay": "intracellular Ca2+, agonist", "test system": "HEK293T transiently transfected", "Emax [%]": "83.1 ± 3.5"}
{"SMILES": "COc1ccc(C2(C(=O)N3CCC(Nc4nc5ccccc5c(=O)[nH]4)CC3)CC2)cc1", "target": "MRGPRD (Homo sapiens, UniProt Q8TDS7, Y245A)", "assay": "miniGq recruitment, agonist, BRET", "test system": "HEK293T", "conditions": "Y245A mutant", "scale": "reference: wild type", "Emax [%]": "45.1 ± 6.92"}
{"SMILES": "O=C(COc1ccc(C(F)(F)F)cc1C(F)(F)F)Nc1cc(C2CCC2)nn1CC(F)(F)F", "target": "Kir3.1/Kir3.2", "assay": "thallium flux, activator", "test system": "HEK293", "scale": "reference: standard compound", "Emax [%]": 35}
{"SMILES": "CCc1cc(O)cc2c(/C=N/NC(=N)NCCc3ccc(Cl)cc3)c[nH]c12", "target": "Relaxin-3 receptor 1 (RXFP3, Homo sapiens, UniProt Q9NSD7, K271A)", "test system": "HEK-293T", "scale": "reference: wild type", "Emax [%]": "62.4 ± 5.4"}
{"SMILES": "C=CCn1c(=O)c2ccccc2n2c(SCC(=O)Nc3ccc(NC(C)=O)cc3)nnc12", "target": "Muscarinic acetylcholine receptor M4 (CHRM4, Homo sapiens, UniProt P08173)", "assay": "receptor activation, agonist", "conditions": "concentration not given, 16 h", "Emax [%]": "128 ± 2"}
{"SMILES": "CCc1cc(NC(=O)COc2cc(Cl)ccc2Cl)n(CC(F)(F)F)n1", "target": "Kir3.1/Kir3.2", "assay": "thallium flux, activator", "test system": "HEK293", "scale": "reference: standard compound", "Emax [%]": 80}
{"SMILES": "CSCC[C@H](NC(=O)[C@H](CC(C)C)NC(=O)CNC(=O)[C@H](Cc1ccccc1)NC(=O)[C@H](Cc1ccccc1)NC(=O)[C@@H](N)CCC(N)=O)C(N)=O", "target": "Substance-P receptor (TACR1, Homo sapiens, UniProt P25103, N85Q)", "assay": "agonist", "conditions": "concentration not given", "Emax [%]": "66 ± 7"}
{"SMILES": "CSCC[C@H](NC(=O)[C@@H](NC(=O)[C@@H](N)Cc1ccc(O)cc1)C(C)C)C(=O)NCC(=O)N[C@@H](Cc1c[nH]cn1)C(=O)N[C@@H](Cc1ccccc1)C(=O)N[C@@H](CCCNC(=N)N)C(=O)N[C@@H](Cc1c[nH]c2ccccc12)C(=O)N[C@@H](CC(=O)O)C(=O)N[C@@H](CCCNC(=N)N)C(=O)N[C@@H](Cc1ccccc1)C(N)=O", "target": "Melanocortin receptor 4 (MC4R, Homo sapiens, UniProt P32245)", "assay": "cAMP, agonist", "test system": "CHO-K1", "Emax [%]": 96}
{"SMILES": "Cc1cc(NC(=O)COc2ccc(Cl)cc2Cl)n(CC(F)(F)F)n1", "target": "Kir3.1/Kir3.2", "assay": "thallium flux, activator", "test system": "HEK293", "scale": "reference: standard compound", "Emax [%]": 85}
{"SMILES": "CC[C@H](C)[C@@H]1NC(=O)[C@H](Cc2ccccc2)NC(=O)[C@H](CCC(=O)O)NC(=O)[C@H](CCCNC(=N)N)NC(=O)CNC(=O)[C@@H](NC(=O)[C@H](CC(C)C)NC(=O)[C@H](CCCNC(=N)N)NC(=O)[C@@H](NC(=O)CNC(=O)[C@H](Cc2ccc(O)cc2)NC(=O)[C@@H]2CCCN2C(=O)[C@H](C)NC(=O)[C@H](C)NC(=O)[C@@H](N)CCCNC(=N)N)C(C)C)CSSC[C@@H]2NC(=O)[C@@H](NC(=O)[C@H](CO)NC(=O)[C@H](CO)NC(=O)[C@H](CO)NC(=O)[C@H](CC(C)C)NC(=O)CNC(=O)[C@H](C)NC(=O)[C@H](CC(C)C)NC(=O)[C@@H](NC(=O)[C@@H](N)CC(=O)O)C(C)C)CSSC[C@H](NC(=O)CNC(=O)[C@H](Cc3c[nH]c4ccccc34)NC(=O)[C@H](CCCCN)NC2=O)C(=O)N[C@@H](CO)C(=O)N[C@@H](CCCCN)C(=O)N[C@@H](CO)C(=O)N[C@@H](CCC(=O)O)C(=O)N[C@@H]([C@@H](C)CC)C(=O)N[C@@H](CO)C(=O)N[C@@H](CO)C(=O)N[C@@H](CC(C)C)C(=O)N[C@H](C(=O)O)CSSC[C@@H](C(=O)NCC(=O)NCC(=O)N[C@@H](CO)C(=O)N[C@@H](CCCNC(=N)N)C(=O)N[C@@H](Cc2c[nH]c3ccccc23)C(=O)O)NC(=O)[C@H]([C@@H](C)O)NC(=O)[C@H](Cc2ccccc2)NC(=O)[C@H]([C@@H](C)CC)NC(=O)[C@H](C(C)C)NC(=O)[C@H](C)NC(=O)[C@H](CCCNC(=N)N)NC1=O", "target": "Relaxin-3 receptor 1 (RXFP3, Homo sapiens, UniProt Q9NSD7, V375T)", "test system": "HEK-293T", "scale": "reference: wild type", "Emax [%]": "66.5 ± 3.7"}
{"SMILES": "O=C(COc1cccc(Cl)c1Cl)Nc1cc(C2CC2)nn1CC(F)(F)F", "target": "Kir3.1/Kir3.2", "assay": "thallium flux, activator", "test system": "HEK293", "scale": "reference: standard compound", "Emax [%]": 68}
{"SMILES": "COc1cc(C2C(NC(=O)c3ccc(NC(=O)OC(C)(C)C)cc3)(C(=O)O)C(c3ccc(OC(=O)c4cccs4)c(OC)c3)C2(NC(=O)c2ccc(NC(=O)OC(C)(C)C)cc2)C(=O)O)ccc1OC(=O)c1cccs1 (stereo not shown)", "target": "Glucagon-like peptide 1 receptor (GLP1R, Homo sapiens, UniProt P43220, V194A)", "assay": "cAMP accumulation, agonist", "conditions": "receptor mutant", "scale": "reference: wild type", "Emax [%]": "93.3 ± 4.31"}
{"note": "A few entries again:"}
{"SMILES": "C=CCn1c(=O)c2ccccc2n2c(SCC(=O)Nc3ccc(NC(C)=O)cc3)nnc12", "target": "Muscarinic acetylcholine receptor M4 (CHRM4, Homo sapiens, UniProt P08173)", "assay": "receptor activation, agonist", "conditions": "concentration not given, 16 h", "Emax [%]": "128 ± 2"}
